Results collected from several papers.
Lines come from different studies, so protocols differ. Numbers after ± are the reported error.
UCHL1: Ubiquitin carboxyl-terminal hydrolase isozyme L1 (UCHL1, Homo sapiens, UniProt P09936)
Chain of UniProt P09936 (whole entry, looked up): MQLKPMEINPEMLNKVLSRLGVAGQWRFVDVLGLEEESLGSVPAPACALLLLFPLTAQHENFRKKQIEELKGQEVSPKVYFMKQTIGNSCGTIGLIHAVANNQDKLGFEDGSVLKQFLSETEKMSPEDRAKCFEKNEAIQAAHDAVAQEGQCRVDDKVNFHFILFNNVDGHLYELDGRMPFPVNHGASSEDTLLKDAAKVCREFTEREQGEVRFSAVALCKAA

SMILES	target or system	assay	test system	conditions	scale	endpoint	value
C=CC(=O)N1CCC(c2nc(C(=O)O)co2)CC1	UCHL1	covalent, intact protein LC-MS		12.5 µM		labelling	45%
c1ccc(-c2nc(N3CCC(c4ccccn4)C3)c3ccccc3n2)nc1 (stereo not drawn)			female Balb/c mice, plasma	oral, 12.5 mg/kg, mean, together with: ABT		AUC(0-inf)	28800 ng·h/mL
CCOc1ccc(N(C)S(=O)(=O)c2cc(Cl)sc2C(=O)Nc2cc(Cl)cc(C(=O)O)c2)cc1OC			male C57BL/6 mice, brain	intraperitoneal, 10 mg/kg		AUC(0-inf)	25.1 ng·h/g
CCCCC(=O)NC(c1ccc(N(CC)CC)cc1)c1ccc2cccnc2c1O (stereo not drawn)	Trypanosoma cruzi	reporter translation, Renilla luciferase mRNA translation	cell-free extract	40 µM	baseline: DMSO	inhibition	-10.4%
Cc1[nH]c(C)c(S(=O)(=O)Nc2ccc(C(F)(F)F)c(Cl)c2)c1C(=O)N1CCC(F)(F)C1			mice, brain	intraperitoneal, 40 mg/kg		AUC(0-inf)	23000 ng·h/g
OCc1nc2ccc(NCc3ccc(C(F)(F)F)cc3)cc2[nH]1			Balb/c mice male, plasma	oral, 10 mg/kg		AUC(0-inf)	2730 ± 410 ng·h/mL
CC(C)(C)OC(=O)C(Br)(C(=O)OC(C)(C)C)c1ccc(Cl)nn1	UCHL1	covalent, intact protein LC-MS		12.5 µM		labelling	14%
CC(C)[C@@H](CS(=O)(=O)C(C)C)N1C(=O)[C@@](C)(CC(=O)O)C[C@H](c2cccc(Cl)c2)[C@H]1c1ccc(Cl)cc1			FVB mice Abcb1a/b knockout, brain	intravenous, 20 mg/kg		AUC(0-inf)	9830 ± 1290 ng·h/mL
COc1cccc2c(N3CCC(CCP(=O)(O)O)CC3)ncnc12			female C57BL/6 mice, cerebrospinal fluid	subcutaneous, 50 mg/kg		AUC(0-inf)	1980 ng·h/mL
Cc1cc(NC(=O)c2cccc3cc(-c4cccc5[nH]nc(N)c45)ccc23)ccc1F			CD-1 mice, brain	oral, 10 mg/kg		AUC(0-inf)	5490 ng·h/g
CCN1CCN(Cc2ccc(NC(=O)c3ccc(C)c(NC(=O)c4cncc(-c5cccs5)c4)c3)cc2C(F)(F)F)CC1			C57BL/6 mice, epithelial lining fluid	intraperitoneal, 10 mg/kg		AUC(0-inf)	4490 ng·h/mL
CCOC(=O)c1cc(Cl)cc(NC(=O)c2sc(Cl)cc2S(=O)(=O)N(C)c2ccc(OCC)c(OC)c2)c1			male C57BL/6 mice, brain	intraperitoneal, 10 mg/kg		AUC(0-inf)	31.4 ng·h/g
Nc1ncn([C@H]2C[C@H](O)[C@@H](CO)O2)c(=O)n1		UHPLC-MS/MS	C57BL/6 mice, female, plasma	oral, 0.4 mg/kg		AUC(0-inf)	200 ng·h/mL
Cc1cc2sc(N)nc2c2cccnc12			female BALB/c mice, plasma	intraperitoneal, 30 mg/kg		AUC(0-inf)	45600 ng·h/mL
CC1(C)CC[C@]2(C(=O)O)CC[C@]3(C)C(=CC[C@@H]4[C@@]5(C)C[C@@H](O)[C@H](OC(=O)/C=C/c6ccc(O)cc6)C(C)(C)[C@@H]5CC[C@]43C)[C@@H]2C1 (relative stereo)			C57BL/6 mice, plasma	intraperitoneal, 85 µmol/kg single dose		AUC(0-inf)	92.7 µM·h
